Published values from different studies.
Every numbered part comes from another study and shows a few of its results, in no order.

Series 1
Cell line: HEK-293T/ACE2
Concentration: concentration not given
Time: 16 (unit not given)
Relative to: vehicle
`CNC[C@H](O)c1cccc(O)c1` has a viability of 99%.
`CCOC(=O)C1=C(C)NC(C)=C(C(=O)OC)C1c1cccc(Cl)c1Cl` (stereo not shown) gave a viability of 96.6%.
`CCCC1O[C@@H]2C[C@H]3[C@@H]4CCC5=CC(=O)C=C[C@]5(C)[C@H]4[C@@H](O)C[C@]3(C)[C@]2(C(=O)CO)O1` (stereo partly shown) gave a viability of 99.8%.

Series 2
Target: Replicase polyprotein 1ab, nsp12 with nsp7/nsp8 (rep, Severe acute respiratory syndrome coronavirus 2, UniProt P0DTD1)
Action: inhibitor
Organism: SARS-CoV-2
Concentration: 20 µM
`Cc1cc(N)c2ccccc2[n+]1CCCCCCCCCC[n+]1c(C)cc(N)c2ccccc21` gave an inhibition of 98.4%.
With `CN(C)[C@@H]1C(O)=C(C(N)=O)C(=O)[C@@]2(O)C(O)=C3C(=O)c4c(O)cccc4[C@@](C)(O)[C@H]3[C@H](O)[C@@H]12` the inhibition was 106%.
The inhibition of `O=C(O)c1c(Cl)c(Cl)c(Cl)c(Cl)c1-c1c2cc(I)c(=O)c(I)c-2oc2c(I)c(O)c(I)cc12` is reported as 105%.
`COc1cc(NC(C)CCCN)c2ncccc2c1` (stereo not shown) gave an inhibition of 100%.
`CC1=NN(c2ccc(C)c(C)c2)C(=O)/C1=N\Nc1cccc(-c2cccc(C(=O)O)c2)c1O` gave an inhibition of 103%.
The inhibition of `O=c1c(O)c(-c2ccc(O)c(O)c2)oc2cc(O)ccc12` is reported as 107%.
The inhibition of `CCOc1ccc2nc3cc(N)ccc3c(N)c2c1` is reported as 91.6%.
For `O=C(N/N=C/c1ccc([N+](=O)[O-])o1)c1cc([N+](=O)[O-])cc([N+](=O)[O-])c1O`, the inhibition was 112%.

Series 3
Target: Replicase polyprotein 1ab, main protease (rep, Severe acute respiratory syndrome coronavirus 2, UniProt P0DTD1)
Read-out: enzyme activity
Action: inhibitor
Concentration: 20 µM
Notes: hit confirmation
`C=C1C(=O)[C@]23[C@H](O)[C@H]1CC[C@@H]2[C@@]12CO[C@]3(O)C[C@@H]1C(C)(C)CC[C@@H]2O` gave an inhibition of 95.1%.
`CCOc1cc(C(Nc2cc(C)ccn2)c2ccc3cccnc3c2O)ccc1OC` (stereo not shown) gave an inhibition of 107%.
For `CCOC(=O)Cc1ccc(-c2ccccc2)cc1`, the inhibition was 99.8%.
With `Oc1cc2c(cc1O)C(Cc1cccc3ccccc13)NCC2` (stereo not shown) the inhibition was 1.7%.

Further values, each from its own experiment
`CC[C@H](C)[C@H](NC(=O)[C@H](CC(C)C)NC(=O)[C@H](Cc1c[nH]c2ccccc12)NC(=O)[C@H](CCC(N)=O)NC(=O)[C@@H](NC(=O)[C@H](Cc1ccccc1)NC(=O)[C@H](C)NC(=O)[C@H](CCCCNC(=O)COCCOCCNC(=O)COCCOCCNC(=O)CC[C@H](NC(=O)CCCCCCCCCCCCCCCCCCC(=O)O)C(=O)O)NC(=O)[C@H](CCC(N)=O)NC(=O)[C@H](C)NC(=O)[C@@H](NC(=O)[C@H](CCCCN)NC(=O)[C@H](CC(=O)O)NC(=O)[C@H](CC(C)C)NC(=O)C(C)(C)NC(=O)[C@@H](NC(=O)[C@H](CO)NC(=O)[C@H](Cc1ccc(O)cc1)NC(=O)[C@H](CC(=O)O)NC(=O)[C@H](CO)NC(=O)[C@@H](NC(=O)[C@H](Cc1ccccc1)NC(=O)[C@@H](NC(=O)CNC(=O)[C@H](CCC(=O)O)NC(=O)C(C)(C)NC(=O)[C@@H](N)Cc1ccc(O)cc1)[C@@H](C)O)[C@@H](C)O)[C@@H](C)CC)[C@@H](C)CC)C(C)C)C(=O)N[C@@H](C)C(=O)NCC(=O)NCC(=O)N1CCC[C@H]1C(=O)N[C@@H](CO)C(=O)N[C@@H](CO)C(=O)NCC(=O)N[C@@H](C)C(=O)N1CCC[C@H]1C(=O)N1CCC[C@H]1C(=O)N1CCC[C@H]1C(=O)N[C@@H](CO)C(N)=O`: “pulse rate change” -1.72 bpm (healthy subjects, single ascending dose; 5.0 mg, day 29; relative to: baseline).

A few entries again (series 2):
`CC1=NN(c2ccc(C)c(C)c2)C(=O)/C1=N\Nc1cccc(-c2cccc(C(=O)O)c2)c1O` gave an inhibition of 103%.
